Results from different studies.
Each numbered part is a random draw from the data of one study; scales do not carry over between parts.
Chain of UniProt Q15139 (whole entry, looked up): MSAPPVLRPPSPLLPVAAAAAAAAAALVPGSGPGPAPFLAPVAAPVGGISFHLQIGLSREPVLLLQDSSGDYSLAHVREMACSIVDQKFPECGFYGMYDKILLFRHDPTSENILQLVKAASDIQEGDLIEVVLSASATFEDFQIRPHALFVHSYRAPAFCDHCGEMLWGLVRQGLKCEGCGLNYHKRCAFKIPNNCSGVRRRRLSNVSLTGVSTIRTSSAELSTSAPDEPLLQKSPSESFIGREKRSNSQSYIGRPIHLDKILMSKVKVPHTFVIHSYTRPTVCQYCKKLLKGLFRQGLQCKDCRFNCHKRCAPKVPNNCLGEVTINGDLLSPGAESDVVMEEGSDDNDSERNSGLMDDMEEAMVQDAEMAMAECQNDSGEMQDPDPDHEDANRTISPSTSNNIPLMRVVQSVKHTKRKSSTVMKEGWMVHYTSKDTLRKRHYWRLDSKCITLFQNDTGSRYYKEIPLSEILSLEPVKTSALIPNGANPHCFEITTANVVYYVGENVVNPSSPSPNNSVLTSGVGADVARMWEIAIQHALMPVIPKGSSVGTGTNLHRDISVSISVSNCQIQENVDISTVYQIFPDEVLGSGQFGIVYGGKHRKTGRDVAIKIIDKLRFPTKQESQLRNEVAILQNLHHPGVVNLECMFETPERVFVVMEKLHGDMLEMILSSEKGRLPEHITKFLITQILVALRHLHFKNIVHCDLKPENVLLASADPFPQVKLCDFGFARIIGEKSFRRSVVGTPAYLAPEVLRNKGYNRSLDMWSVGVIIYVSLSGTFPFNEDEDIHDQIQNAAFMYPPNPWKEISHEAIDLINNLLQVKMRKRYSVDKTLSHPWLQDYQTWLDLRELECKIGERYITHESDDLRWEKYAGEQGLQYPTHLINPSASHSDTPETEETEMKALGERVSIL
Chain of UniProt Q9NR20 (whole entry, looked up): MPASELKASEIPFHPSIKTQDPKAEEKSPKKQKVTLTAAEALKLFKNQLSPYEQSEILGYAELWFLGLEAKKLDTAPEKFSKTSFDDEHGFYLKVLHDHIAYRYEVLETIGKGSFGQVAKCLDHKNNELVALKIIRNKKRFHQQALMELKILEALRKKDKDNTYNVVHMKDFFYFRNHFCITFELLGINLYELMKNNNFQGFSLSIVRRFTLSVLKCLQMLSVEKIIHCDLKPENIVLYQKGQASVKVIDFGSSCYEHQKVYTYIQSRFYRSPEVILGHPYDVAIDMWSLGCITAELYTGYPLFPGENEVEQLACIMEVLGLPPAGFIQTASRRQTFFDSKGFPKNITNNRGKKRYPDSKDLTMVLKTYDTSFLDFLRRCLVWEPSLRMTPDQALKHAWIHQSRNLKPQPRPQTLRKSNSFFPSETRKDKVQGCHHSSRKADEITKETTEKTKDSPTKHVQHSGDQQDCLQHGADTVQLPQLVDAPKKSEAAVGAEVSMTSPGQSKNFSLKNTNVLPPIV
Chain of UniProt P34947 (whole entry, looked up): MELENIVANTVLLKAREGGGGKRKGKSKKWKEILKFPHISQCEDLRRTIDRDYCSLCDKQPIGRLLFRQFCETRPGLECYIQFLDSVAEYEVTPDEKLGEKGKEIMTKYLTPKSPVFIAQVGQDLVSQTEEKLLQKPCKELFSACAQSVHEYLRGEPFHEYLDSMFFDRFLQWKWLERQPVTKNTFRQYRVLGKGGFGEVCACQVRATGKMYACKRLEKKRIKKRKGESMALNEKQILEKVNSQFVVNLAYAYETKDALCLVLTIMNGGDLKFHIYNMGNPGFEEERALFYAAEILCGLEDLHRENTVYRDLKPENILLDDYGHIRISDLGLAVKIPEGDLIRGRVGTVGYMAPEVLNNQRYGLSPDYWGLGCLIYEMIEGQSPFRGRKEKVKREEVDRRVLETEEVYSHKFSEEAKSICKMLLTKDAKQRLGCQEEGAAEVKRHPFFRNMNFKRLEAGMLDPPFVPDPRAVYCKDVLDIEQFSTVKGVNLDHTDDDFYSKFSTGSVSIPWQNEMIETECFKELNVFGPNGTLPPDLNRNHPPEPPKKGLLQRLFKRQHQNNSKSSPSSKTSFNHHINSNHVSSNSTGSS

Study 1
Cell line: HEK-293T/ACE2
Concentration: concentration not given
Time: 16 (unit not given)
Baseline: vehicle
SMILES	viability
O=C1CN2Cc3c(ccc(Cl)c3Cl)N=C2N1	103%
N[C@@H](Cc1cc(I)c(Oc2ccc(O)c(I)c2)c(I)c1)C(=O)O	97.7%
CCCCCCCCCCCCCCCCOP(=O)([O-])OCC[N+](C)(C)C	99.6%
CC(=O)O[C@H]1C[C@@H]2CC[C@@H]3[C@H](CC[C@@]4(C)[C@H]3C[C@H]([N+]3(C)CCCCC3)[C@@H]4OC(C)=O)[C@@]2(C)C[C@@H]1N1CCCCC1	100%
Nc1nc2ncc(CNc3ccc(C(=O)N[C@@H](CCC(=O)O)C(=O)O)cc3)nc2c(=O)[nH]1	89.5%
CC(C)c1ccc2oc3nc(N)c(C(=O)O)cc3c(=O)c2c1	99.4%
CCCCN1CCCCC1C(=O)Nc1c(C)cccc1C (stereo not shown)	89.6%
CC(C(=O)O)c1ccc(-c2ccccc2)c(F)c1 (stereo not shown)	101%
O=C1CCC(N2C(=O)c3ccccc3C2=O)C(=O)N1 (stereo not shown)	99.6%
C[C@]12CC[C@@H]3c4ccc(OC(=O)c5ccccc5)cc4CC[C@H]3[C@@H]1CC[C@@H]2O	101%
CC(=O)OCC[N+](C)(C)C	98.2%
CCn1nc(C(=O)O)c(=O)c2cc3c(cc21)OCO3	102%

Study 2
Target: Kappa-type opioid receptor (OPRK1, Homo sapiens, UniProt P41145)
Chain of UniProt P41145 (whole entry, looked up): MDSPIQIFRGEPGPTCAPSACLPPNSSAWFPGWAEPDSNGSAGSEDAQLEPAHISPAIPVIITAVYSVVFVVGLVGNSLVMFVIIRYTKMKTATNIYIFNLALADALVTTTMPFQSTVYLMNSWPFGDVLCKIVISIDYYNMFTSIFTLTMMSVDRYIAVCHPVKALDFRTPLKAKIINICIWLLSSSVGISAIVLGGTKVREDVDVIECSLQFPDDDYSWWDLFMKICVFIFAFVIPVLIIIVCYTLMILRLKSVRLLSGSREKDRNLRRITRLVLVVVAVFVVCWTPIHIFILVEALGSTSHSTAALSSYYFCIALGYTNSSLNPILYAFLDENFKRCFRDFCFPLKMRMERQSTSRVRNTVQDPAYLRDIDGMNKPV
Effect on: ligand displacement
Concentration: 10 µM
SMILES	inhibition
COCCOc1nc(-c2ccc(Cl)nc2)nc2c1CN(C(=O)c1ncn3ccccc13)CC2	-1.56%
Cc1c(N2CCNCC2)nc2ccc(Br)cc2c1C(=O)NC[C@H](CCC(=O)O)c1ccccc1Cl	17.7%
Nc1nc(NCc2ccccc2)nc(-c2cccc(CO)c2)n1	35.2%
CO[C@H]1CC[C@H](CNc2ccc(S(=O)(=O)NC(=O)c3ccc(N4CCN(CC5=C(c6ccc(Cl)cc6)CC(C)(C)CC5)CC4)cc3Oc3cnc4[nH]ccc4c3)cc2[N+](=O)[O-])CC1	-27.6%
Cc1cc(Nc2nccc(C)n2)cc(-c2cnc([C@@]3(O)CC[C@H](C(=O)O)C(C)(C)C3)s2)c1	30.6%
CN1CCN(c2ccnc(NCCc3ccccc3)n2)CC1	23.7%
NC(=O)c1ccc2nc(-c3ccc(C4(N)CCC4)cc3)c(-c3ccccc3)n2n1	25.4%
COc1cc(C(=O)O)ncc1C#Cc1ccccc1NS(=O)(=O)c1cccc2c(N(C)C)ccnc12	11%
O=C(N[C@H]1CCCCC/C=C\C2C[C@@]2(C(=O)O)NC(=O)[C@@H]2C[C@@H](Oc3ccncc3)CN2C1=O)OC1CCCC1 (stereo partly shown)	-10.6%
Cc1noc([C@H]2C[C@@H](c3ccc(C(F)(F)F)cc3)CN(C(=O)N3CCS(=O)(=O)C3)C2)n1	7.69%
Nc1nc(NCc2ccccc2)nc(-c2ccccc2CO)n1	30.2%
CN([C@@H]1CCc2c(CC(=O)O)c3ccccc3n2C1)S(=O)(=O)c1ccc(F)cc1	4.56%
COc1ccc2cc(OCC3(C(=O)O)CN(C(=O)c4ccc(F)cc4)C3)ccc2c1	16.4%
O=C(NS(=O)(=O)c1ccc(NCC2CCOCC2)c([N+](=O)[O-])c1)c1ccc(N2CCN(Cc3ccc(C(F)(F)F)cc3-c3ccc(Cl)cc3)CC2)cc1Oc1cnc2[nH]ccc2c1	-0.08%
N#CC1(c2ccccn2)CCN(Cc2cc(C(=O)N3CCCC3)c(=O)n3ccccc23)CC1	46.8%
CC(=O)N1CCC(c2ccc(C(=O)NC3=NCCN3)cc2C(F)(F)F)CC1	-13.9%
CN1CCN(C(=O)C(C)(C)c2ccc(C(=O)Nc3cn4cc(-c5cc(C(C)(C)C)cc(C(C)(C)C)c5)ccc4n3)cc2)CC1	54.4%
C[C@H](c1ccnc(Nc2nc3ccc(-c4cc(N(C)C)ncn4)cc3[nH]2)c1)N1CCN(C(=O)CC(F)(F)F)CC1	4.24%
O=C(NCCCC1CCCCC1)c1ccc(CNC(=O)c2cnn(-c3ccccc3)c2C(F)(F)F)cc1	80.2%
CC1=C(C#N)C(c2ccc3[nH]nc(C)c3c2)C(C#N)=C(C)N1	8.26%
C[C@@H]1CN(c2cc(-c3n[nH]c4ccc(OC5(C)CC5)cc34)ncn2)C[C@H](C)O1	-0.6%
CC[C@H](CC(=O)O)n1c(=O)c2ncccc2n(Cc2cn(C)c3cc(C)cc(C)c23)c1=O	95.9%
Cc1ccccc1Oc1cc(-n2c(=O)cc(C(F)(F)F)[nH]c2=O)c2ccccc2c1Cl	37.5%
c1ccc(N2CCN(Cc3nc4ccccc4[nH]3)CC2)nc1	45.1%
O=C(Nc1ccc(Oc2ccc(F)cc2)cc1)N1CCc2ncccc2[C@H]1c1ccc(F)cc1	79.3%

Study 3
Target: DNA polymerase theta, helicase domain (POLQ, Homo sapiens, UniProt O75417)
Chain of UniProt O75417 (whole entry, looked up): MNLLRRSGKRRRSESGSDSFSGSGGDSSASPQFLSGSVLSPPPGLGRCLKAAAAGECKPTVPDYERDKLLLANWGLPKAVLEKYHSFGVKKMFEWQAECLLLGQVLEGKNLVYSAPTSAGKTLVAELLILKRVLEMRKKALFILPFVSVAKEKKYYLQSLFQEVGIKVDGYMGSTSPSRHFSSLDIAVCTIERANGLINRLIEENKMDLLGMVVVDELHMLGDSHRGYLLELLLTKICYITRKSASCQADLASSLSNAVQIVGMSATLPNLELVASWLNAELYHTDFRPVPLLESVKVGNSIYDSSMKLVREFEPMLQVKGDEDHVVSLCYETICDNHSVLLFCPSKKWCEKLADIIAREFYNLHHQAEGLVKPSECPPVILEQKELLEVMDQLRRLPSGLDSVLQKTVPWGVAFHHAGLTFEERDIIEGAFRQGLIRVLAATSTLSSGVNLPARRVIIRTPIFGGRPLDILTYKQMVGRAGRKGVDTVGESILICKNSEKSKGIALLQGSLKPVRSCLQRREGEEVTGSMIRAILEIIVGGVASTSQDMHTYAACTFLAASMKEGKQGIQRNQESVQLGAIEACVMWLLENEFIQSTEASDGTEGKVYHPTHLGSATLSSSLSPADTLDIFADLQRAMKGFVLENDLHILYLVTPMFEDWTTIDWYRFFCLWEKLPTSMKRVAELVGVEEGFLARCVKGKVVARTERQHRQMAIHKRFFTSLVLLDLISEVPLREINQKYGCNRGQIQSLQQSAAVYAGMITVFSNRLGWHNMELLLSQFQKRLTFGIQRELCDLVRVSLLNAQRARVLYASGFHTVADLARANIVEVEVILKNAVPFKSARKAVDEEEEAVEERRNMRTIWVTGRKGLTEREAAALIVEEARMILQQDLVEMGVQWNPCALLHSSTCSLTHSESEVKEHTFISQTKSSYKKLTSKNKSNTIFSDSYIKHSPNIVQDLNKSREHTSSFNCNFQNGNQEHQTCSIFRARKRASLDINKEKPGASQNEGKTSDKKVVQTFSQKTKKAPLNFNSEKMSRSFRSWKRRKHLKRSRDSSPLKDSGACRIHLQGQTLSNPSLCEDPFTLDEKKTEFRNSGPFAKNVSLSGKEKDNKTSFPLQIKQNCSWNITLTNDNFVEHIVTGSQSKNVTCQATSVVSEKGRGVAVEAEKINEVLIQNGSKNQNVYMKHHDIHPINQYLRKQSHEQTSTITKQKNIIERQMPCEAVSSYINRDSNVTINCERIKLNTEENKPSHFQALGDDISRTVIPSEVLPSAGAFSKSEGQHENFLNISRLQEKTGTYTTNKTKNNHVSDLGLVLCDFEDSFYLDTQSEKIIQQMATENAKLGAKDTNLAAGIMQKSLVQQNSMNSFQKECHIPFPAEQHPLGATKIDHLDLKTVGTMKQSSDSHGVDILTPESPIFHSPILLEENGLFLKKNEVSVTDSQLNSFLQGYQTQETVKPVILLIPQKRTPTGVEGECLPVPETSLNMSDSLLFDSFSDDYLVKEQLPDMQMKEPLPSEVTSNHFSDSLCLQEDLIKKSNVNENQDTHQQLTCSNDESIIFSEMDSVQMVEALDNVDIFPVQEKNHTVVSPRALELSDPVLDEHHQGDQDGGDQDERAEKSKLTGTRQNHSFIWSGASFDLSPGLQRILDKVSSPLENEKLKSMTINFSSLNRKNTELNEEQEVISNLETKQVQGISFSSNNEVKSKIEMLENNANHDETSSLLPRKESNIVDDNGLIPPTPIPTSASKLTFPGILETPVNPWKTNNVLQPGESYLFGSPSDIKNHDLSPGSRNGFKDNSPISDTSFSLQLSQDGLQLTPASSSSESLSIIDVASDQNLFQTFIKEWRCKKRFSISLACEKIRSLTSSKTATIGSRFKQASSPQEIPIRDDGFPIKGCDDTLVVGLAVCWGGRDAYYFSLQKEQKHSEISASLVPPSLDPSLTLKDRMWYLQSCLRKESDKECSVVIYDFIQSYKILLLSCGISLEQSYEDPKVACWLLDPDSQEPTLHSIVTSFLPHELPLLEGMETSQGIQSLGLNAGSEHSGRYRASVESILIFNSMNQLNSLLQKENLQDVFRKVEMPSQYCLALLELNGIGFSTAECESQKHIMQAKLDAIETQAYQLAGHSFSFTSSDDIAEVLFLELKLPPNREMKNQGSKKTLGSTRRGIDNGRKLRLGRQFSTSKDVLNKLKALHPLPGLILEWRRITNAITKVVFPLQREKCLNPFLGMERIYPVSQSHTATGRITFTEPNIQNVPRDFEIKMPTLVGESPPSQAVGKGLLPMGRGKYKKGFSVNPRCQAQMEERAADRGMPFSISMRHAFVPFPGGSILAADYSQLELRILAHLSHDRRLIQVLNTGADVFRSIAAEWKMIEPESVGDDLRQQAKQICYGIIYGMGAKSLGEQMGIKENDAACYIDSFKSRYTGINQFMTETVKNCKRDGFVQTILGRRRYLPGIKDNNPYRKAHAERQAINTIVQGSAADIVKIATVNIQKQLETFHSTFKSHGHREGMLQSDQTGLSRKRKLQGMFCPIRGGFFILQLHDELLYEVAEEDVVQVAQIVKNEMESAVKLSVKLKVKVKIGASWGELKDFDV
Effect on: ATPase activity
Concentration: concentration not given
Setting: average
Added: with ssDNA
SMILES	remaining activity
CN(N=O)c1ccc(O)c(O)c1	38%
CSc1ccc(C(c2c(O)c3ccccc3oc2=O)c2c(C)n(C)n(-c3ccccc3)c2=O)cc1 (stereo not shown)	70.7%
CCN(CC)C(=O)c1ccc2c(c1)N(Cc1ccc(C(F)(F)F)cc1)C(=O)c1ccccc1S2	53.3%
COc1cc(C(c2c(O)c3ccccc3oc2=O)c2c(C)n(C)n(-c3ccccc3)c2=O)ccc1OCC(=O)O (stereo not shown)	36.6%

Study 4
Compound: N/C(=N\[N+](=O)[O-])N/N=C\c1ccc(-c2cccc([N+](=O)[O-])c2)o1
Effect on: enzyme activity
Mode: inhibitor
Concentration: 0.5 µM
Baseline: control
target	remaining activity
STE20-like serine/threonine-protein kinase (SLK, Homo sapiens, UniProt Q9H2G2)	101%
G protein-coupled receptor kinase 5 (GRK5, Homo sapiens, UniProt P34947)	123%
Protein-tyrosine kinase 2-beta (PTK2B, Homo sapiens, UniProt Q14289)	91.5%
Mitogen-activated protein kinase 10 (MAPK10, Homo sapiens, UniProt P53779)	87%
Serine/threonine-protein kinase BRSK1 (BRSK1, Homo sapiens, UniProt Q8TDC3)	97.2%
Epidermal growth factor receptor (EGFR, Homo sapiens, UniProt P00533)	100%
Rho-associated protein kinase 2 (ROCK2, Homo sapiens, UniProt O75116)	86.3%
Dual specificity tyrosine-phosphorylation-regulated kinase 4 (DYRK4, Homo sapiens, UniProt Q9NR20)	92.7%
Cyclin-dependent kinase 7 (CDK7, Homo sapiens, UniProt P50613)	100%
Serine/threonine-protein kinase D1 (PRKD1, Homo sapiens, UniProt Q15139)	103%
Casein kinase II subunit alpha' (CSNK2A2, Homo sapiens, UniProt P19784)	107%
